# Results collected from several papers.
# Every numbered part comes from another study and shows a few of its results, in no order. Positions count from the first letter of the parent shown.

# Sample 1 — technique: DHFR PCA, dose-response; matrix: yeast; notes: Hill fit, mean, not affinity; added: (+)-ABA, dose series; direction: lower = more sensitive
# Target: ABI1, truncated, D143A, DHFR fusion (Arabidopsis thaliana, UniProt P49597)
# Starting sequence: PYL1, truncated, DHFR fusion (Arabidopsis thaliana, UniProt Q8VZS8); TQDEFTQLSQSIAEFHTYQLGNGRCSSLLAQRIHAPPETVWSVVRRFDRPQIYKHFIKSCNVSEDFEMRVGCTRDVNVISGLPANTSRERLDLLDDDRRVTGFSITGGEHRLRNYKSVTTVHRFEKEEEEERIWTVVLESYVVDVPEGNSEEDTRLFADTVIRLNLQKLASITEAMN
Variant,ABA EC50
S150E,47.9 µM
I133G,1.19 µM
D75E,0.597 µM
S42G,3.71 µM
G21H,3.31 µM
G148D,7.95 µM
V136N,286 µM
Q7L,2.08 µM
V145T,8.86 µM
V70F,94.5 µM
S9F,11.3 µM
T86E,13.8 µM
E128W,5.62 µM
V143C,9.41 µM
L94Y,8.25 µM
L20R,1.7 µM
L8T,54.4 µM
L82C,51.7 µM
R69N,3.77 µM
R32Q,3.02 µM
Q19Y,5.19 µM
V70T,8.69 µM
E125R,2.19 µM
I133N,1.49 µM

# Sample 2 — target: CCND3, cyclin fold, Cln2 fusion (human); technique: yeast growth competition, sequencing; matrix: yeast; notes: weak parent motif; relative to: not given; direction: higher = stronger binding
# Starting sequence: KIF20B docking peptide (human); KRAKRKLYTSEIS; partner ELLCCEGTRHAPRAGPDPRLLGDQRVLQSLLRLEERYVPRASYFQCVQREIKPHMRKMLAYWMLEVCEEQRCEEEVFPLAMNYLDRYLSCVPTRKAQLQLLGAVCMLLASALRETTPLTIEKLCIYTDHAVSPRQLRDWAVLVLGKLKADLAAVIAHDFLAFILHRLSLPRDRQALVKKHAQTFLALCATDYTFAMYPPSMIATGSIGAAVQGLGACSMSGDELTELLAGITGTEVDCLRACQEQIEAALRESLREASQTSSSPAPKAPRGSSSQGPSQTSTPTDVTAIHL
Variant,normalised enrichment score
KRAKRKLYTAEIS [S10A],-0.235
KAAKRKLYTSEIS [R2A],0.173
KRAKRKLYTSEAS [I12A],0.0575
ARAKRKLYTSEIS [K1A],0.402
KRAARKLYTSEIS [K4A],-0.0241
KRAKRKLATSEIS [Y8A],-0.172

# Sample 3 — target: CEBPB, bZIP domain (human); technique: DHFR protein complementation; matrix: yeast; relative to: wild-type JUN-FOS pair; direction: higher = stronger binding
# Notes: single substitutions, most at no-binding floor
# Starting sequence: JUN, bZIP domain (human); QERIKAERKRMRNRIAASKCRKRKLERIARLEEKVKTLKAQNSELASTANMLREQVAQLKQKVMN; partner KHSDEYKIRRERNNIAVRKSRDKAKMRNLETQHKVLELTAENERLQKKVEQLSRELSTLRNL
Variant,binding fitness [natural log]
A29W,-1.45
L31Y,-1.4
K34Q,-1.25
E44N,-1.47
E33F,-1.46
E33D,-1.33
T37G,-1.4
A57H,-1.37
A46R,-1.14
R30S,-1.04
L38K,-1.44
R53V,-1.27
T48Q,-1.18
M51G,-1.35
A49H,-1.44
E54T,-1.3
L45Q,-1.47
T48V,-1.33
L38A,-1.46
A29K,-1.38
A46T,-1.28

# Sample 4 — technique: RNA Bind-n-Seq; molecule type: RNA; matrix: in vitro; tested at: not given; relative to: input RNA pool; direction: higher = stronger binding
# Target: RING finger protein unkempt homolog, zinc fingers 1-6, GST-SBP tag (UNK, Homo sapiens, UniProt Q9C0B0, residues 30-357)
# Notes: RNA with constant flanks, human and mouse sites, ends assumed
# All sequences stand within: GGGAGUUCUACAGUCCGACGAUC … CAACAGAGGAUUGAGCAUCA
# Construct (chain): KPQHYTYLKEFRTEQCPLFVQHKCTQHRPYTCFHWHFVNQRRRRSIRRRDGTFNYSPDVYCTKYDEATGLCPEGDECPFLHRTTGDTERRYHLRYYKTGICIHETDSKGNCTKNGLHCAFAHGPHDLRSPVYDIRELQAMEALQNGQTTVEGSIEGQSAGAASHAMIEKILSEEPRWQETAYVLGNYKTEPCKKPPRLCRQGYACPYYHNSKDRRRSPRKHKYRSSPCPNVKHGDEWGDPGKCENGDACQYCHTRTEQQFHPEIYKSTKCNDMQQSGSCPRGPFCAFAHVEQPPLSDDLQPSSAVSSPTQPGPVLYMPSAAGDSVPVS
Sequence,bound/input enrichment
AUUCGGCUCCGCCUGGAGAGCUGUGAAGACAGGUUGAUUCGGCAGAUCCGGACUCCCCUGGAAAGAGAUGAUUUACAUGAAAGCAUGCUCAGGAUCACGGAGCAGGAGAAACUGAAGAAA,0.353 ratio
AAAGGCGCAAAGCUCAUCCUGAUCUUUCUGUUCCUAGGAGCCGUUCAGUCCAAUGCAUUGAUAGUUAAUUUGACAGAUUCAAAGGGUACUUGCCUUUAUGCAGAAUGGGAGAUGAAUUUC,0.182 ratio
CAGCUAGAAGAGCUGGCUUUUAGGGUCAUGCGUCUUCAGGAUGAGCUGGUCACCUUGCGUCUAGAGUGUACAAACCUGUACCGGAAGGGUCAUUUCACUUCACUUGAAUUGGUUCCACCC,0.149 ratio
AGUUCAGAGUCCGGAGCUGCGGUGGUGGCGGCGAAGGCGAGAGUCAUGGCUGGACAAGCUUUUAGGAAGUUUCUUCCGCUCUUUGACAGAGUAUUGGUUGAAAGGAGUGCUGCCGAAACU,0.19 ratio
AAUCGUUGUAUGGUAGAAAUUGUCCAGAAAUAUGACCCAGAAAAAGAUGAGUGGCAUAAAGUUUUUGAUCUUCCAGAGUCACUUGGUGGCAUUCGAGCCUGUACACUCACAGUUUUUCCA,0.0991 ratio
ACAAUCAUGCCUACUUUUAUCUUCGAACACAUUAUUAAACGGAUGGCUCCCAGCAUUAUGAAAAGCCUGAUGGAUCACACCAUUCCUGAAGUUUAAACCCUUGUACAAUGCAUCACGGCU,0.535 ratio
CCUCAGAAGAGGAAUCUUGCUUCUUUAAAGCUCUCAUGGUGCUUUCAUUUUAAAGGAGACUUUAGAAGAAAAAGAAUGGAAUGAAGUUUUGAGUUACAAUUCAAAUUUGGGGAUCAAUCC,0.101 ratio
GGAGCCAGACAUAUGGAAAGUGAGAAACUUGCUCAAAUAUUGGCAGCUAGACAGUUAGAAAUUAAACAGAUUCCAUCUGAUGGCCACUGUAUGUAUAAAGCCAUUGAAGAUCAACUGAAA,1.86 ratio
GGCCAGGAGCGAUUUCACACCAUCACAACCUCCUACUACAGAGGAGCAAUGGGCAUCAUGCUAGUGUAUGACAUCACCAACGGUAAAAGCUUUGAGAACAUCAGCAAGUGGCUUAGAAAC,0.272 ratio
UGUGUUCUGAAUGAGAUGAUGCAAAAUGAAGAAAAAUAUGAAAAAAUCUUAAAGGCAUUGAACAGUCGUCGUAUUAUUCCCAGACCAUUUGUAGCUCAAAAACUUGCAUCAAGUGAUGAC,0.154 ratio
CGAAAGUCACCUGAAAUUUCUGAACGAAUUGUACAGUGGCCUGCAAUAACGUACAAACCUCUGUUGGACAAAGCUGGUUUGGGAUCCAUAACUUCUGUUCGCUUUCUGGGAGAUCAACAA,0.195 ratio

# Sample 5 — technique: protein binding microarray; molecule type: double-stranded DNA, one strand shown; matrix: in vitro; tested at: not given; relative to: not given; direction: higher = stronger binding
# Target: Histone acetyltransferase KAT6A, winged helix 2, GST fusion (KAT6A, Homo sapiens, UniProt Q92794, residues 85-181)
# Notes: 8-mer, flanks averaged, mean of 2 arrays, mostly near background
# Construct (chain): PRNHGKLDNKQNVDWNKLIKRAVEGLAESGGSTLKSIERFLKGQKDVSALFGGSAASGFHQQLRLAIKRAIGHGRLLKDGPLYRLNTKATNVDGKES
Sequence,E-score
AACAACTC,-0.104
AGGTCGCC,0.0181
CGATACCA,0.064
CGACACAA,-0.0154
CGTCTATC,-0.0776
TAACACGA,0.0891
AGCCCCAC,0.0425
ACCTTGAC,0.0293
CCGCTCCA,0.0445
ACACAAAT,0.119
GCCGAGAA,0.119
AAGACTAA,-0.13
GAGTTTGC,0.0809
CCGGTTTC,-0.0293
AAGGGTAC,-0.187
CGCACTTC,-0.0424
AACCCAGG,0.0767
GGGGGACC,0.0128
CCGTATCA,0.115
CAAAGTTA,0.0281
AAGCATAC,0.101
CCAGCCCC,0.153

# Some of these lines once more (sample 5):
Sequence,E-score
CGTCTATC,-0.0776
TAACACGA,0.0891
AGCCCCAC,0.0425
ACCTTGAC,0.0293
CCGCTCCA,0.0445
ACACAAAT,0.119
GCCGAGAA,0.119
AAGACTAA,-0.13
GAGTTTGC,0.0809
CCGGTTTC,-0.0293
AAGGGTAC,-0.187
CGCACTTC,-0.0424
AACCCAGG,0.0767
